Published values from different studies.
Numbered parts are unrelated; each lists some results of a single study.
Chain of UniProt Q5VT25 (whole entry, looked up): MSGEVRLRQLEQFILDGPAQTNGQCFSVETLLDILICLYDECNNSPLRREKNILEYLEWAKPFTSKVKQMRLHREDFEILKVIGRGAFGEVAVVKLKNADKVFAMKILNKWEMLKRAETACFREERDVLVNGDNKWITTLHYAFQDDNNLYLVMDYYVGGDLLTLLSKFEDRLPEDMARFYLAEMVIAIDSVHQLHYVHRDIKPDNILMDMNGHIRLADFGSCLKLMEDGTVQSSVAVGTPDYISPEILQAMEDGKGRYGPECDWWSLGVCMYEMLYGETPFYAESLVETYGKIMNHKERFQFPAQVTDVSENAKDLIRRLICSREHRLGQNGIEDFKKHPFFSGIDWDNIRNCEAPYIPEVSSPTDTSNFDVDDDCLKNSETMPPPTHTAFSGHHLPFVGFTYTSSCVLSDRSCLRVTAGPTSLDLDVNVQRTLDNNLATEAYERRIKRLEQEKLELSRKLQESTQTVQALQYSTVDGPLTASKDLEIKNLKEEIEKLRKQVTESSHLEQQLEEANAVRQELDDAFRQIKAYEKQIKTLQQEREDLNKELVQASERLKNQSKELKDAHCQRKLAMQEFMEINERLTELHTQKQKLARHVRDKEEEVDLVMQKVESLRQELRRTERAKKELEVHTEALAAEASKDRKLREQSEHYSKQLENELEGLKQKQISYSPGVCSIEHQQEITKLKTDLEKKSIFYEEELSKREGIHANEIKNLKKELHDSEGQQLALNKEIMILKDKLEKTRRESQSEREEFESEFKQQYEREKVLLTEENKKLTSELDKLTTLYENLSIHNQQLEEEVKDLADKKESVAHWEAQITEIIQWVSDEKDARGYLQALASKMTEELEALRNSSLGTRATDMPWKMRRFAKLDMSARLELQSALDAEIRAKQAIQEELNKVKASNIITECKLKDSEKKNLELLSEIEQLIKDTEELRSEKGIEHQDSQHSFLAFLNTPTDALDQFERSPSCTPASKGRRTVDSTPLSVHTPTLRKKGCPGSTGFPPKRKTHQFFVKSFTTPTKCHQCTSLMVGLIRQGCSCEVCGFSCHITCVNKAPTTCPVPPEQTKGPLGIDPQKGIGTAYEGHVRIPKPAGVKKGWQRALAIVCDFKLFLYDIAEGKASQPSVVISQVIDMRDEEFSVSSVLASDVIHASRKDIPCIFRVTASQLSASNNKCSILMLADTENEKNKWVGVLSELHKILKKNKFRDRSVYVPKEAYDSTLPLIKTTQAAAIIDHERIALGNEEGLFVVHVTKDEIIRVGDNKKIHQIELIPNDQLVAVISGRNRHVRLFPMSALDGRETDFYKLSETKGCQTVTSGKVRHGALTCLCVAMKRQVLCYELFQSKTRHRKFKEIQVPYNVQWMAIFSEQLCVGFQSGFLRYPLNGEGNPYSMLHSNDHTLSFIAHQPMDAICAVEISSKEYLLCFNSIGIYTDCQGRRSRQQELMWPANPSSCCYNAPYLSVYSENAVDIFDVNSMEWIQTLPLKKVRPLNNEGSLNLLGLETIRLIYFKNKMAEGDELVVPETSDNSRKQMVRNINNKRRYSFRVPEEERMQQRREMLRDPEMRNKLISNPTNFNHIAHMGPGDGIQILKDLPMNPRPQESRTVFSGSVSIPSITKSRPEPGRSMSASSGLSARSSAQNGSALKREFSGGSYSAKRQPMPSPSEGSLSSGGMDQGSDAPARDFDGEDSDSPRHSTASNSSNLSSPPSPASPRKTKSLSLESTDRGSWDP
Chain of UniProt Q96D53 (whole entry, looked up): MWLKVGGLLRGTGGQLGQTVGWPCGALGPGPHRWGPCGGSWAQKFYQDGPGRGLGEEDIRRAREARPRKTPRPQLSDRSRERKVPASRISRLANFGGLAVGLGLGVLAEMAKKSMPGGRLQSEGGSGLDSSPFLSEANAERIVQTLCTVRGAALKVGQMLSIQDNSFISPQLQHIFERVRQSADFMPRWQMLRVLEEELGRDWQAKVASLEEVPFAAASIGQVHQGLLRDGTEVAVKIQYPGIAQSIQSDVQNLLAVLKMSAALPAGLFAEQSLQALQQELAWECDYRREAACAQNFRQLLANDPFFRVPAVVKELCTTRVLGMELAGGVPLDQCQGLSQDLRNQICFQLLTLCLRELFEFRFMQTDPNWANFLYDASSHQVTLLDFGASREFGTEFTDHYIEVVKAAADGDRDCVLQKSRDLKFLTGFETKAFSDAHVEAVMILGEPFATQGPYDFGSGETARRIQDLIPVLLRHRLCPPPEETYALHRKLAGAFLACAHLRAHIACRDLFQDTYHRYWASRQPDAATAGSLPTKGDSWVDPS
Chain of UniProt Q9UPZ9 (whole entry, looked up): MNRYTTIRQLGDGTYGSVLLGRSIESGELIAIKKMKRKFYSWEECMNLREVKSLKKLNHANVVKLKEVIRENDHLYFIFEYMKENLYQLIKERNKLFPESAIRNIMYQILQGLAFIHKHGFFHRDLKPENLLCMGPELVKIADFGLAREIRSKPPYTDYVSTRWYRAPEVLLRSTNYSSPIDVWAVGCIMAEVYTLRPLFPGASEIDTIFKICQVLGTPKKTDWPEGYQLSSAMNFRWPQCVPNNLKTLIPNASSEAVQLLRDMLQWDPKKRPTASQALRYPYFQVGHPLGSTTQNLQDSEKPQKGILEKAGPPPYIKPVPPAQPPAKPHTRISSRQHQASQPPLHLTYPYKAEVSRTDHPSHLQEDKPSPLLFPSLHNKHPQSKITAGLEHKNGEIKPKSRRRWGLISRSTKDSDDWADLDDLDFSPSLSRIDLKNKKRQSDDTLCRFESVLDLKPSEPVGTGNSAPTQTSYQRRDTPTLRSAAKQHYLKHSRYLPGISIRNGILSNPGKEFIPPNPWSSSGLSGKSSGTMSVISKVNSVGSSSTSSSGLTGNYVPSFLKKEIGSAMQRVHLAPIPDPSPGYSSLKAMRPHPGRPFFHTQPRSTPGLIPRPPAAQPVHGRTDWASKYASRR
Chain of UniProt Q16539 (whole entry, looked up): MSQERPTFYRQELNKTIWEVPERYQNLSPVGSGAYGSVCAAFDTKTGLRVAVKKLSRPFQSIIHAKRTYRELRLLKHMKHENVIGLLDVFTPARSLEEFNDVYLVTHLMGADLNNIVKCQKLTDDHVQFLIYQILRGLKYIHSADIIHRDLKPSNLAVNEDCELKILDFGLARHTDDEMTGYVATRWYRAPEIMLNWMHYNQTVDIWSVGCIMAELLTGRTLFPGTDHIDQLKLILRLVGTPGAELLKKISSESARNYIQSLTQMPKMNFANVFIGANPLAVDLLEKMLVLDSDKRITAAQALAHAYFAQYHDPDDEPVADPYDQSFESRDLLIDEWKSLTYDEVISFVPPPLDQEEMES
Chain of UniProt P49674 (whole entry, looked up): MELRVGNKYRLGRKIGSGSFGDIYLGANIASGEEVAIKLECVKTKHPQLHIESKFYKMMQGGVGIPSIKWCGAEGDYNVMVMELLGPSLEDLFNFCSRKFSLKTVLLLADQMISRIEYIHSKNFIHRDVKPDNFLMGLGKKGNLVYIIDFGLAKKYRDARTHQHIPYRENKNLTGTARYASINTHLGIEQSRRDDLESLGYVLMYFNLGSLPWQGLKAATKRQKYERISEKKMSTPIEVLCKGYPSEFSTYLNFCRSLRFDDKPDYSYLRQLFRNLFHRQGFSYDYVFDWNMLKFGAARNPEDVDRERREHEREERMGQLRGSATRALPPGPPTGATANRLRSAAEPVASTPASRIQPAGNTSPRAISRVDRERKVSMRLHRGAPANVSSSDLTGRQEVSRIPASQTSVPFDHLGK

Series 1
SMILES: CO[C@@H](C)c1c(Nc2ccc([C@@H](N(C)C(=O)C3CCS(=O)(=O)CC3)C(F)(F)F)cc2)cnc2cc(Cl)nn12
Read-out: cell-free assay
Technique: competition with immobilised ligand
Tested at: 1 µM
Endpoint: remaining binding
Phosphatidylinositol 4,5-bisphosphate 3-kinase catalytic subunit alpha isoform (PIK3CA, Homo sapiens, UniProt P42336, E545K): 62%
Atypical kinase COQ8B, mitochondrial (COQ8B, Homo sapiens, UniProt Q96D53): 96%
Serine/threonine-protein kinase ICK (CILK1, Homo sapiens, UniProt Q9UPZ9): 96%
Receptor-type tyrosine-protein kinase FLT3 (FLT3, Homo sapiens, UniProt P36888, ITD): 66%
Tyrosine-protein kinase ABL1, phosphorylated (ABL1, Homo sapiens, UniProt P00519, Y253F): 100%
MAP kinase-interacting serine/threonine-protein kinase 1 (MKNK1, Homo sapiens, UniProt Q9BUB5): 100%
Serine/threonine-protein kinase WNK1 (WNK1, Homo sapiens, UniProt Q9H4A3): 98%
Tyrosine-protein kinase HCK (HCK, Homo sapiens, UniProt P08631): 100%
Dual specificity protein kinase CLK4 (CLK4, Homo sapiens, UniProt Q9HAZ1): 92%
SRSF protein kinase 2 (SRPK2, Homo sapiens, UniProt P78362): 99%
Serine/threonine-protein kinase SIK2 (SIK2, Homo sapiens, UniProt Q9H0K1): 92%
Casein kinase I isoform epsilon (CSNK1E, Homo sapiens, UniProt P49674): 59%
Serine/threonine-protein kinase MRCK alpha (CDC42BPA, Homo sapiens, UniProt Q5VT25): 94%
Mitogen-activated protein kinase 14 (MAPK14, Homo sapiens, UniProt Q16539): 83%
RAC-beta serine/threonine-protein kinase (AKT2, Homo sapiens, UniProt P31751): 91%
Peripheral plasma membrane protein CASK (CASK, Homo sapiens, UniProt O14936): 100%

Series 2
Target: Homeodomain-interacting protein kinase 1 (HIPK1, Homo sapiens, UniProt Q86Z02)
Chain of UniProt Q86Z02 (whole entry, looked up): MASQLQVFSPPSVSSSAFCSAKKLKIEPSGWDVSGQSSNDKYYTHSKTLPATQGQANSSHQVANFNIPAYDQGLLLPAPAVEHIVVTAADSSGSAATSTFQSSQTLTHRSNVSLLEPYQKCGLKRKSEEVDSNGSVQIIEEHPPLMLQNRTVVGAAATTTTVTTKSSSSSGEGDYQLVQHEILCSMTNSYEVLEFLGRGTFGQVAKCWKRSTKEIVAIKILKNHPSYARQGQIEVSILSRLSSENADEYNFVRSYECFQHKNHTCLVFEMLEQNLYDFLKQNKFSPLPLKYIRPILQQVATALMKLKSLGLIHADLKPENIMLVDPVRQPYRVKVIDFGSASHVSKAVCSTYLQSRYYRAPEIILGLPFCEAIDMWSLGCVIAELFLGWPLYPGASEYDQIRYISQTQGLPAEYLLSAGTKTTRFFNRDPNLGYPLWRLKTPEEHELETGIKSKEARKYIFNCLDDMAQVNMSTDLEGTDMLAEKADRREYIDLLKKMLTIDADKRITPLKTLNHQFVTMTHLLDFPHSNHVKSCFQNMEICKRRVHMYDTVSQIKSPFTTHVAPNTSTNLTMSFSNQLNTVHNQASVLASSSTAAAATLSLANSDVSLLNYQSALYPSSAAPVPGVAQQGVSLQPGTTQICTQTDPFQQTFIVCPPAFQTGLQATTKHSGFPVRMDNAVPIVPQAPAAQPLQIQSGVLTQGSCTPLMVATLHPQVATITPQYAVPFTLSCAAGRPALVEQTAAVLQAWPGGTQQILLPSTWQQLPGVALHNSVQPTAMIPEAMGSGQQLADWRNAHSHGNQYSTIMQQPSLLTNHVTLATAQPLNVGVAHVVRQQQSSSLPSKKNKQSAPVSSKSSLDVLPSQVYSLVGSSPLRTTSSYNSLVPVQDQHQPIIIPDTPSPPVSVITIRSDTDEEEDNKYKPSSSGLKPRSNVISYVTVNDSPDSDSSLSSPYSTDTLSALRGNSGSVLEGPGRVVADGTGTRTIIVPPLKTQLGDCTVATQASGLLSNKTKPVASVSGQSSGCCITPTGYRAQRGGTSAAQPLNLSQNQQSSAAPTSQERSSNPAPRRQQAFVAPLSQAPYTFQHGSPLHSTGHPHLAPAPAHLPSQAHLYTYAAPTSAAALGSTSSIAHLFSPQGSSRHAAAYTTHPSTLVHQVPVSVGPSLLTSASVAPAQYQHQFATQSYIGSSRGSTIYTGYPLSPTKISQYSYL
Read-out: enzyme activity
Action: inhibitor
Tested at: 0.5 µM
Baseline: control
Endpoint: remaining activity
CC[n+]1c(/C=C/N(C)c2ccccc2)n(-c2ccccc2)c2ccc(-c3nc4ccccc4s3)cc21: 99.5%
Nc1ncnc2c1cnn2-c1ccccc1: 98.4%
Nc1nccc(-c2c(-c3ccc(F)cc3)ncn2C2CCNCC2)n1: 101%
COc1ccc(S(=O)(=O)N(CCO)c2ccccc2CN(C)CC=Cc2ccc(Cl)cc2)cc1: 106%
Cc1cncc2cccc(S(=O)(=O)N3CCCN(C(=O)CN)C[C@@H]3C)c12: 99.1%
Fc1ccc(-c2nc3n(c2-c2ccncc2)CCS3)cc1: 108%
CCCC(=O)Oc1ccc2[nH]c(C(=O)c3cc4ccccc4[nH]3)cc2c1: 101%
O=C1NC(=O)C(c2c[nH]c3ccccc23)=C1c1c[nH]c2ccccc12: 102%
Oc1ccc(Nc2nc(-c3ccc(Cl)cc3)cs2)cc1: 100%
O=C1Cc2c([nH]c3ccc([N+](=O)[O-])cc23)-c2ccccc2N1: 98.5%
CC(C)(C)n1nc(Cc2cccc3ccccc23)c2c(N)ncnc21: 95.2%
COc1cc(Nc2c(C#N)cnc3cc(OCCCN4CCN(C)CC4)c(OC)cc23)c(Cl)cc1Cl: 96.3%
N#CC(=C(N)Sc1ccc(N)cc1)c1ccccc1C(F)(F)F: 107%
Cc1ccc(NC2=CC(=O)c3sc(C)nc3C2=O)cc1: 96.7%
CSc1nc(-c2ccnc(N[C@@H](C)c3ccccc3)c2)c(-c2ccc(F)cc2)[nH]1 (racemic): 110%
CC(=O)c1ccc(N2CCOCC2)cc1O: 93.9%
CC#CC(=O)Nc1cc2c(Nc3ccc(F)c(Cl)c3)ncnc2cn1: 108%
Nc1nc(Nc2ccc(S(N)(=O)=O)cc2)nn1C(=O)c1c(F)cccc1F: 106%
NC(=O)c1ccc(N(C(N)=O)c2c(F)cccc2F)nc1-c1ccc(F)cc1F: 100%
O=S(=O)(NCCNC/C=C/c1ccc(Br)cc1)c1cccc2cnccc12: 91.4%
Cc1cc(Nc2nc(-c3ccccc3)nc3ccccc23)n[nH]1: 96.3%
CCc1[nH]c(-c2ccc(OC)cc2)nc1-c1ccncc1: 97.7%

Series 3
Target: Bromodomain-containing protein 4, BD1 (BRD4, Homo sapiens, UniProt O60885)
Read-out: acetyl-histone H4 peptide binding
Technique: AlphaScreen displacement
Tested at: 50 µM
Endpoint: inhibition
COc1cc2ncnc(Nc3cccc(Br)c3)c2cc1OC: 26.4%
N#CC(=Cc1ccncc1)c1nc2ccccc2s1: 2.25%
COc1ccc2nc(NC(=O)C3C4CCC(C4)C3C(=O)O)sc2c1 (stereo not shown): 5.45%
CN(C)c1ccc(/C=C2\C(=O)Nc3ccccc32)cc1: 81%
CS(=O)(=O)O.Cn1cc(C2=C(c3cn(CCCSC(=N)N)c4ccccc34)C(=O)NC2=O)c2ccccc21: 97.4%
N#CC(=Cc1c(F)cccc1F)c1nc2ccccc2s1: 22.9%
Nc1nc(NCc2ccccc2)c2nc[nH]c2n1: 74.2%
O=C(O)c1ccccc1C=NNc1ncc(C(F)(F)F)cc1Cl: 3.55%
N#CC(=Cc1ccc(O)c(O)c1)C(=O)Nc1ccccc1: 39.2%
Cc1c(C(=O)N2CCCCC2)sc2nc[nH]c(=O)c12: 3.8%
N#CC(=Cc1ccc(O)c(O)c1)C(=O)NCc1ccccc1: 29.9%
Cc1cnc(Nc2ccc(F)cc2Cl)nc1-c1c[nH]c(C(=O)N[C@H](CO)c2cccc(Cl)c2)c1: 64.1%

Series 4
Organism: Plasmodium berghei
Action: inhibitor
Cell line: Huh-7
Strain: GFP-expressing sporozoites, liver stage
Tested at: 10 µM
Time: 24 h
Baseline: untreated control
Endpoint: infection rate
Cc1c2oc3c(C)ccc(C(=O)N[C@@H]4C(=O)N[C@H](C(C)C)C(=O)N5CCC[C@H]5C(=O)N(C)CC(=O)N(C)[C@@H](C(C)C)C(=O)O[C@@H]4C)c3nc-2c(C(=O)N[C@@H]2C(=O)N[C@H](C(C)C)C(=O)N3CCC[C@H]3C(=O)N(C)CC(=O)N(C)[C@@H](C(C)C)C(=O)O[C@@H]2C)c(N)c1=O: 1.2%
C1CCC(C(CC2CCCCN2)C2CCCCC2)CC1 (stereo not shown): 8.18%
CC(=O)OCC(=O)[C@@]1(O)[C@H](C)C[C@H]2[C@@H]3CCC4=CC(=O)C=C[C@]4(C)[C@@]3(F)[C@@H](O)C[C@@]21C: 102%
Cn1c(=O)c2c(ncn2CC(O)CO)n(C)c1=O (stereo not shown): 107%
O=C(Cn1ccnc1[N+](=O)[O-])NCCO: 93.7%
CC[C@@H](CO)NCCN[C@@H](CC)CO: 111%
NC(=NCCCCCCN=C(N)/N=C(\N)Nc1ccc(Cl)cc1)/N=C(\N)Nc1ccc(Cl)cc1: 13.9%
Cc1c(N(C)CS(=O)(=O)O)c(=O)n(-c2ccccc2)n1C: 116%
CCCCCCCCCCCCCCCC(=O)O[C@@H]1[C@@H](O)[C@@H](O)[C@@H]([C@H](NC(=O)[C@@H]2C[C@@H](CCC)CN2C)[C@H](C)Cl)O[C@@H]1SC: 92%
C[C@@H]1C[C@H]2[C@@H]3CCC4=CC(=O)C=C[C@]4(C)[C@@]3(F)[C@@H](O)C[C@]2(C)[C@@]1(O)C(=O)CO: 103%
CC1=Nc2ccc(Cl)cc2S(=O)(=O)N1: 88.2%

For quick reference, copied from above (series 3):
COc1ccc2nc(NC(=O)C3C4CCC(C4)C3C(=O)O)sc2c1 (stereo not shown): 5.45%
CN(C)c1ccc(/C=C2\C(=O)Nc3ccccc32)cc1: 81%
CS(=O)(=O)O.Cn1cc(C2=C(c3cn(CCCSC(=N)N)c4ccccc34)C(=O)NC2=O)c2ccccc21: 97.4%
N#CC(=Cc1c(F)cccc1F)c1nc2ccccc2s1: 22.9%
Nc1nc(NCc2ccccc2)c2nc[nH]c2n1: 74.2%
O=C(O)c1ccccc1C=NNc1ncc(C(F)(F)F)cc1Cl: 3.55%
N#CC(=Cc1ccc(O)c(O)c1)C(=O)Nc1ccccc1: 39.2%
Cc1c(C(=O)N2CCCCC2)sc2nc[nH]c(=O)c12: 3.8%
N#CC(=Cc1ccc(O)c(O)c1)C(=O)NCc1ccccc1: 29.9%
Cc1cnc(Nc2ccc(F)cc2Cl)nc1-c1c[nH]c(C(=O)N[C@H](CO)c2cccc(Cl)c2)c1: 64.1%
